Published values gathered from unrelated publications.
Every numbered part comes from another study and shows a few of its results, in no order. Substitutions count along the parent as printed.

Block 1
Target: tungstate, free oxyanion
Technique: microfluidic competitive inhibition
Sample: in vitro, cell-free expressed
Tested at: not given
Notes: derived from inhibition constants, unchanged parent 2230 nM
Reading: lower = stronger binding
Starting sequence: PafA, mature enzyme, eGFP fusion (Elizabethkingia meningoseptica, UniProt Q9KJX5); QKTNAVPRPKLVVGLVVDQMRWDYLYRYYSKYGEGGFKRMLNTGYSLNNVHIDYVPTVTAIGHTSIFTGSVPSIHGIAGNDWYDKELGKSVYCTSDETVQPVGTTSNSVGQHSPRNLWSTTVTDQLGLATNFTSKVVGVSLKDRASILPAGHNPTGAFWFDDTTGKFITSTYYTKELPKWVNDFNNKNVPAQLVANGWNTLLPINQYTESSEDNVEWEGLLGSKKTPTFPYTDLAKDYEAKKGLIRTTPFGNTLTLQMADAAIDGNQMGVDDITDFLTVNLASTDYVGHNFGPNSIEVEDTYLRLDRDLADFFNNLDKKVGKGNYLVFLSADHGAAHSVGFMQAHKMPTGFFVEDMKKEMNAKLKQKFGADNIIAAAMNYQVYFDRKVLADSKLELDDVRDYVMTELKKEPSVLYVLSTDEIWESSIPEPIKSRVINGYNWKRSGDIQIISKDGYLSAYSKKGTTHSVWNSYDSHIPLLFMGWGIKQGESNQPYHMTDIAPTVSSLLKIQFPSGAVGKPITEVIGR
`N252G`: “oxyanion analog dissociation constant” 3.35 µM.
`D264G`: “oxyanion analog dissociation constant” 2.16 µM.
`W180G` — result for “oxyanion analog dissociation constant”: 1.06 µM.
`K187G` — result for “oxyanion analog dissociation constant”: 2.13 µM.
For `I449V`, “oxyanion analog dissociation constant” read 2.75 µM.
For `G79A`, “oxyanion analog dissociation constant” read 2.3 µM.
For `N186G`, “oxyanion analog dissociation constant” read 1.99 µM.
`G369A`: “oxyanion analog dissociation constant” 2.17 µM.

Block 2
Target: UDP-N-acetylglucosamine--peptide N-acetylglucosaminyltransferase 110 kDa subunit (OGT, Homo sapiens, UniProt O15294)
Effect on: binding
Technique: phage display NGS
Molecule type: peptide
Reference: input library
`YTIDVVFEPKYQIMT` — result for “minimum log2 enrichment ratio”: 3.01.
`HNFHYYHAQPEWSPM`: “minimum log2 enrichment ratio” 1.93.
`HRGQGDEEHWHRHQA` — result for “minimum log2 enrichment ratio”: 2.57.
For `VTPTSPFYPQYQIIF`, “minimum log2 enrichment ratio” read 4.07.
For `HYPHHDYLWHPITNV`, “minimum log2 enrichment ratio” read 1.69.
`FPVHHHYKWFQHEVD` — result for “minimum log2 enrichment ratio”: 2.67.
Under “minimum log2 enrichment ratio”, `QVMNEHRHHMRHQIY` is recorded as 1.51.
For `NRIFSPAYQINTYI`, “minimum log2 enrichment ratio” read 1.12.

Block 3
Target: CCND2, cyclin fold, Cln2 fusion (human)
Technique: yeast growth competition, sequencing
Sample: yeast
Notes: weak parent motif
Reference: not given
Reading: higher = stronger binding
Starting sequence: viral docking peptide; CKVKRKLFGSENI; partner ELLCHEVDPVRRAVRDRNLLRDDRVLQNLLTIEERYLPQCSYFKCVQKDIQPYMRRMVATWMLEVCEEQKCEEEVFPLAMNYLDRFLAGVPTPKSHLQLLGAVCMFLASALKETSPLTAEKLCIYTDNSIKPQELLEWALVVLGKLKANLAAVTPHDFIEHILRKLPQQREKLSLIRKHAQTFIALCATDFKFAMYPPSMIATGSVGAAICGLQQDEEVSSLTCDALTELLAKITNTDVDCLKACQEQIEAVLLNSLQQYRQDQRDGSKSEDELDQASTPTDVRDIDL
`CKVKAKAFGSENI [R5A L7A]`: “normalised enrichment score” 0.295.
`CKVKRKLFGAENI [S10A]` — result for “normalised enrichment score”: 0.342.
`CKVKRKLAGSENI [F8A]` — result for “normalised enrichment score”: -0.089.
`CKVKKKLFGSENI [R5K]` — result for “normalised enrichment score”: -0.965.

Other studies, line by line
The inhibition of `Cn1cncc1[C@](O)(COc1ccc(C#N)cc1-c1ccc(OC(F)(F)F)cc1)c1ccc(C#N)cc1` is reported as 16.6% (Alpha-1B adrenergic receptor (ADRA1B, Homo sapiens, UniProt P35368); binding, radioligand binding; 10 µM).
